Measured values from different studies.
Numbered parts are unrelated; each lists some results of a single study. Values joined by “and” are separate records of one study, mostly repeats; a detail may differ.
Sequence of UniProt Q6DT37 (whole entry, looked up): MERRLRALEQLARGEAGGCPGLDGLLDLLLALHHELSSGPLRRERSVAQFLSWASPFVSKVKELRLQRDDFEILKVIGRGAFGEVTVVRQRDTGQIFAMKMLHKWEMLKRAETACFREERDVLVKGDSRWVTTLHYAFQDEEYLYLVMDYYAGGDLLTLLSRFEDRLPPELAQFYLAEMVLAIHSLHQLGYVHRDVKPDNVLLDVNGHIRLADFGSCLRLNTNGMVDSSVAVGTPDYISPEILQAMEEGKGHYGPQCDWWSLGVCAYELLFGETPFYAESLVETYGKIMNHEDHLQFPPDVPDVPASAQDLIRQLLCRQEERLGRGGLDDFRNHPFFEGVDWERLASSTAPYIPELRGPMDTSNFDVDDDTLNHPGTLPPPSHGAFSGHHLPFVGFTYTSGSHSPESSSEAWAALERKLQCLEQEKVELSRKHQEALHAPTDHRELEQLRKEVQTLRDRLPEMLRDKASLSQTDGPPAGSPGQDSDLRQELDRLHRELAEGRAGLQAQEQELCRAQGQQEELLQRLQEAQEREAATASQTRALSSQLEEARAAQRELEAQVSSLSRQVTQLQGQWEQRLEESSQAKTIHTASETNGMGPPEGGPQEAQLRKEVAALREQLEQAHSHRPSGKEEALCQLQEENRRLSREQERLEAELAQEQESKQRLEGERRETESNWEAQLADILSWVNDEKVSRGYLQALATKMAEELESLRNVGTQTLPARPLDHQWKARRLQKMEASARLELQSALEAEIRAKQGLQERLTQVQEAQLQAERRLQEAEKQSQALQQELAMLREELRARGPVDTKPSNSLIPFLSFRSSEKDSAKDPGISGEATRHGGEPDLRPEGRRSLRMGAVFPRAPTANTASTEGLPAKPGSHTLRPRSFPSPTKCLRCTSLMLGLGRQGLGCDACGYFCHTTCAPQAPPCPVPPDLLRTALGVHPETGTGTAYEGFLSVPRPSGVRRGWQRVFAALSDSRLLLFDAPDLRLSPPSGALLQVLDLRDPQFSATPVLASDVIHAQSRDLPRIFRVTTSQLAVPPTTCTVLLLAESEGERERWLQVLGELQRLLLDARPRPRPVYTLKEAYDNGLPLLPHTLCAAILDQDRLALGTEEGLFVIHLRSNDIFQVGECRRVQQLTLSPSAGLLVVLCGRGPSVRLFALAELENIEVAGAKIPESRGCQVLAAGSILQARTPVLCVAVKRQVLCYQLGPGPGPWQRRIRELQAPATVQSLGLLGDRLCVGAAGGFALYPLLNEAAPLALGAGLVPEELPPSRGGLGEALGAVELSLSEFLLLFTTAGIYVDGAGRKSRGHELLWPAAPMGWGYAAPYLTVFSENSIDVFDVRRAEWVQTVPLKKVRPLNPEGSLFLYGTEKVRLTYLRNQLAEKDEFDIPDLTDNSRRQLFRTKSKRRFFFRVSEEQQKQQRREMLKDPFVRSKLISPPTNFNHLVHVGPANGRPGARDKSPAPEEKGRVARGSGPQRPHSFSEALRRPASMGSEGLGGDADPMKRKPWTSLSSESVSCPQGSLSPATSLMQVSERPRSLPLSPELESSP

Sample 1
Compound: Cc1noc([C@H]2C[C@@H](c3ccc(C(F)(F)F)cc3)CN(C(=O)N3CCS(=O)(=O)C3)C2)n1
Tested at: 1 µM
Quantity: remaining binding
Casein kinase I isoform alpha (CSNK1A1, Homo sapiens, UniProt P48729); cell-free assay, competition with immobilised ligand: 70%
Serine/threonine-protein kinase PLK4 (PLK4, Homo sapiens, UniProt O00444); cell-free assay, competition with immobilised ligand: 88%
Phosphatidylinositol 4,5-bisphosphate 3-kinase catalytic subunit delta isoform (PIK3CD, Homo sapiens, UniProt O00329); cell-free assay, competition with immobilised ligand: 100%
Serine/threonine-protein kinase MRCK gamma (CDC42BPG, Homo sapiens, UniProt Q6DT37); competition binding: 100%
Myosin light chain kinase, smooth muscle (MYLK, Homo sapiens, UniProt Q15746); cell-free assay, competition with immobilised ligand: 87%

Sample 2
Host: human
Sample: microsomes or S9
Tested at: 2 µM
Time: 0.5 h
Quantity: remaining compound
CCCOc1ccc2c(c1)CNC(CCCCN)C(=O)N2CCc1ccc(OC)cc1 (stereo not shown): 90.8%
N#Cc1cccn2cc(-c3cccc(Br)c3)nc12: 7.6%
COc1ccc(C)cc1N(CC(=O)Nc1ccc(S(=O)(=O)N2CCCC2)cc1)S(C)(=O)=O: 0.688%
CC(C)(C)OC(=O)N[C@@H](CC(=O)N1CCCN(S(C)(=O)=O)CC1)Cc1cc(F)c(F)cc1F: 13.1%
CC(Oc1cccnc1N)c1nnc2ccc(Cl)nn12 (stereo not shown): 92.5%
CCOc1cc(=O)n2c(c1C(=O)NCc1ccc(C)o1)CCCCC2: 79.7%
O=C(Nn1cnc2ccccc21)c1nc(-c2ccc(F)cc2)n2c1CCCCC2: 58.3%
O=C(Nc1ccc(Oc2cccnc2)nc1)c1c[nH]c2ccccc12: 83.9%
COc1ccc(Cn2c(=O)[nH]c(-c3ccc(F)cc3)c(-c3ccc(F)cc3)c2=O)cc1: > 100%

Sample 3
Target: Tyrosine-protein kinase Fer (FER, Homo sapiens, UniProt P16591)
Sequence of UniProt P16591 (whole entry, looked up): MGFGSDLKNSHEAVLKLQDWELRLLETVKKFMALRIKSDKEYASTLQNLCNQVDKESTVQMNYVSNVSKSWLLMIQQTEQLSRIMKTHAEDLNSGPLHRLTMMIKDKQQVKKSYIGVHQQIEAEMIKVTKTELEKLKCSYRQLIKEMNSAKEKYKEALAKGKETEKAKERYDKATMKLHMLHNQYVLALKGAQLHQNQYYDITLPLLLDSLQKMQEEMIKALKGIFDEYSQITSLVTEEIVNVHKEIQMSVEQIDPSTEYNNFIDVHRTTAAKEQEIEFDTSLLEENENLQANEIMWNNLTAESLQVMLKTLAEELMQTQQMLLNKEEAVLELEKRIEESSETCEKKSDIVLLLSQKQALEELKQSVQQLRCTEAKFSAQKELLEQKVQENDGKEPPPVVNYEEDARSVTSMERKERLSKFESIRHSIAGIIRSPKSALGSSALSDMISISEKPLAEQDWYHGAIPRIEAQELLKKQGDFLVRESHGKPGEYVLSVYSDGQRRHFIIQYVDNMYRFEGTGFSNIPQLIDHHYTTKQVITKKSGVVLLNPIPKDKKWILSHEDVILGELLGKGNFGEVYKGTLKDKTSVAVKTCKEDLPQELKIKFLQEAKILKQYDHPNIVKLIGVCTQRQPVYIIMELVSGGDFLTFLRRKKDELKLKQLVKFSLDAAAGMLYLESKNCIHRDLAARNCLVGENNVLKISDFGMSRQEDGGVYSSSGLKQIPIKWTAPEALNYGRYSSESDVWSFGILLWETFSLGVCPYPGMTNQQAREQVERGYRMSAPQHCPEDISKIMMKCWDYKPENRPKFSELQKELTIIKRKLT
Effect on: enzyme activity
Action: inhibitor
Tested at: 0.5 µM
Reference: control
Quantity: remaining activity
Cc1cccc(-c2[nH]c(C(C)(C)C)nc2-c2ccc3c(c2)OCO3)n1: 85.4%
O=S(=O)(c1cccc2cnccc12)N1CCCNCC1: 103%
CN(C)c1ccc(C=C2C(=O)Nc3ccccc32)cc1: 94.5%
COc1ccc(CNC(=O)Nc2ncc([N+](=O)[O-])s2)cc1: 101%
CCOC(=O)c1c(C)[nH]c(/C=C2\C(=O)Nc3ccccc32)c1C: 72.5%
Nc1[nH]nc2nc3ccccc3nc12: 94.4%
OCC(O)CCON=C1C(c2c(O)[nH]c3ccccc23)=Nc2ccccc21 (stereo not shown): 28.8%
Nc1ccc2ncnc(NCCc3ccc(Oc4ccccc4)cc3)c2c1: 99.5%
O=C1NC(=O)C(c2cn(CCCn3ccnc3)c3ccccc23)=C1Nc1ccccc1: 56.1%
CNC(=O)c1cc(Oc2ccc(NC(=O)Nc3ccc(Cl)c(C(F)(F)F)c3)cc2)ccn1: 101%
O=C(CCCc1ccc(-c2ccccc2F)cc1)Nc1ccc(O)cc1: 103%
Nc1ncnc2n[nH]c(Nc3ccc(F)cc3)c12: 100%
Cc1nc(-c2ccccc2)c(-c2ccncc2)o1: 84.9%
Cc1ccc(Nc2nccc(N(C)c3ccc4c(C)n(C)nc4c3)n2)cc1S(N)(=O)=O: 81.3%
N#CC(C#N)=C(N)/C(C#N)=C/c1ccc(O)cc1: 91.1%
COc1ccc(OC)c2c(=S)c3ccccc3[nH]c12: 84%
O=C1NC(=O)C(c2cn(CCCO)c3ncccc23)=C1c1cnccn1: 99.2%
Cn1sc(=O)n(Cc2ccccc2)c1=O: 101%
Oc1ccc(-c2nc(-c3ccncc3)c(-c3ccc(F)cc3)[nH]2)cc1: 94.5%
CC(C)[C@H](CO)Nc1nc(Nc2cc(N)cc(Cl)c2)c2ncn(C(C)C)c2n1: 54.9%
C#Cc1cccc(Nc2ncnc3cc(OCCOC)c(OCCOC)cc23)c1: 94%
COc1cc2ncnc(Nc3ccc(Oc4ccccc4)cc3)c2cc1OC: 75.7%
NCCNc1ncc(C(N)=O)c(Nc2cccc(C(F)(F)F)c2)n1: 37.5%
O=C(Nc1cccc(Nc2cc(Nc3cccc(C(F)(F)F)c3)ncn2)c1)C1CC1: 102%
Cn1c2ccccc2c2c3c(c4c5ccccc5n(CCC#N)c4c21)CNC3=O: 5.9%

Sample 4
Compound: C[C@H]1CC[C@H](n2c3cnccc3c3cnc(Nc4ccc5c(n4)CCN(C(=O)CO)C5)nc32)CC1
Tested at: 1 µM
Quantity: remaining binding
Serine/threonine-protein kinase MRCK gamma (CDC42BPG, Homo sapiens, UniProt Q6DT37); DiscoverX KINOMEscan: 100%
Dual specificity testis-specific protein kinase 1 (TESK1, Homo sapiens, UniProt Q15569); binding, competition with immobilised ligand: 100%
Insulin receptor-related protein (INSRR, Homo sapiens, UniProt P14616); binding: 100%
BDNF/NT-3 growth factors receptor (NTRK2, Homo sapiens, UniProt Q16620); cell-free assay, competition with immobilised ligand: 5%
Protein-tyrosine kinase 6 (PTK6, Homo sapiens, UniProt Q13882); binding, competition with immobilised ligand: 92%

Sample 5
Target: DNA polymerase theta, ATPase domain (POLQ, Homo sapiens, UniProt O75417)
Sequence of UniProt O75417 (whole entry, unmodified, looked up): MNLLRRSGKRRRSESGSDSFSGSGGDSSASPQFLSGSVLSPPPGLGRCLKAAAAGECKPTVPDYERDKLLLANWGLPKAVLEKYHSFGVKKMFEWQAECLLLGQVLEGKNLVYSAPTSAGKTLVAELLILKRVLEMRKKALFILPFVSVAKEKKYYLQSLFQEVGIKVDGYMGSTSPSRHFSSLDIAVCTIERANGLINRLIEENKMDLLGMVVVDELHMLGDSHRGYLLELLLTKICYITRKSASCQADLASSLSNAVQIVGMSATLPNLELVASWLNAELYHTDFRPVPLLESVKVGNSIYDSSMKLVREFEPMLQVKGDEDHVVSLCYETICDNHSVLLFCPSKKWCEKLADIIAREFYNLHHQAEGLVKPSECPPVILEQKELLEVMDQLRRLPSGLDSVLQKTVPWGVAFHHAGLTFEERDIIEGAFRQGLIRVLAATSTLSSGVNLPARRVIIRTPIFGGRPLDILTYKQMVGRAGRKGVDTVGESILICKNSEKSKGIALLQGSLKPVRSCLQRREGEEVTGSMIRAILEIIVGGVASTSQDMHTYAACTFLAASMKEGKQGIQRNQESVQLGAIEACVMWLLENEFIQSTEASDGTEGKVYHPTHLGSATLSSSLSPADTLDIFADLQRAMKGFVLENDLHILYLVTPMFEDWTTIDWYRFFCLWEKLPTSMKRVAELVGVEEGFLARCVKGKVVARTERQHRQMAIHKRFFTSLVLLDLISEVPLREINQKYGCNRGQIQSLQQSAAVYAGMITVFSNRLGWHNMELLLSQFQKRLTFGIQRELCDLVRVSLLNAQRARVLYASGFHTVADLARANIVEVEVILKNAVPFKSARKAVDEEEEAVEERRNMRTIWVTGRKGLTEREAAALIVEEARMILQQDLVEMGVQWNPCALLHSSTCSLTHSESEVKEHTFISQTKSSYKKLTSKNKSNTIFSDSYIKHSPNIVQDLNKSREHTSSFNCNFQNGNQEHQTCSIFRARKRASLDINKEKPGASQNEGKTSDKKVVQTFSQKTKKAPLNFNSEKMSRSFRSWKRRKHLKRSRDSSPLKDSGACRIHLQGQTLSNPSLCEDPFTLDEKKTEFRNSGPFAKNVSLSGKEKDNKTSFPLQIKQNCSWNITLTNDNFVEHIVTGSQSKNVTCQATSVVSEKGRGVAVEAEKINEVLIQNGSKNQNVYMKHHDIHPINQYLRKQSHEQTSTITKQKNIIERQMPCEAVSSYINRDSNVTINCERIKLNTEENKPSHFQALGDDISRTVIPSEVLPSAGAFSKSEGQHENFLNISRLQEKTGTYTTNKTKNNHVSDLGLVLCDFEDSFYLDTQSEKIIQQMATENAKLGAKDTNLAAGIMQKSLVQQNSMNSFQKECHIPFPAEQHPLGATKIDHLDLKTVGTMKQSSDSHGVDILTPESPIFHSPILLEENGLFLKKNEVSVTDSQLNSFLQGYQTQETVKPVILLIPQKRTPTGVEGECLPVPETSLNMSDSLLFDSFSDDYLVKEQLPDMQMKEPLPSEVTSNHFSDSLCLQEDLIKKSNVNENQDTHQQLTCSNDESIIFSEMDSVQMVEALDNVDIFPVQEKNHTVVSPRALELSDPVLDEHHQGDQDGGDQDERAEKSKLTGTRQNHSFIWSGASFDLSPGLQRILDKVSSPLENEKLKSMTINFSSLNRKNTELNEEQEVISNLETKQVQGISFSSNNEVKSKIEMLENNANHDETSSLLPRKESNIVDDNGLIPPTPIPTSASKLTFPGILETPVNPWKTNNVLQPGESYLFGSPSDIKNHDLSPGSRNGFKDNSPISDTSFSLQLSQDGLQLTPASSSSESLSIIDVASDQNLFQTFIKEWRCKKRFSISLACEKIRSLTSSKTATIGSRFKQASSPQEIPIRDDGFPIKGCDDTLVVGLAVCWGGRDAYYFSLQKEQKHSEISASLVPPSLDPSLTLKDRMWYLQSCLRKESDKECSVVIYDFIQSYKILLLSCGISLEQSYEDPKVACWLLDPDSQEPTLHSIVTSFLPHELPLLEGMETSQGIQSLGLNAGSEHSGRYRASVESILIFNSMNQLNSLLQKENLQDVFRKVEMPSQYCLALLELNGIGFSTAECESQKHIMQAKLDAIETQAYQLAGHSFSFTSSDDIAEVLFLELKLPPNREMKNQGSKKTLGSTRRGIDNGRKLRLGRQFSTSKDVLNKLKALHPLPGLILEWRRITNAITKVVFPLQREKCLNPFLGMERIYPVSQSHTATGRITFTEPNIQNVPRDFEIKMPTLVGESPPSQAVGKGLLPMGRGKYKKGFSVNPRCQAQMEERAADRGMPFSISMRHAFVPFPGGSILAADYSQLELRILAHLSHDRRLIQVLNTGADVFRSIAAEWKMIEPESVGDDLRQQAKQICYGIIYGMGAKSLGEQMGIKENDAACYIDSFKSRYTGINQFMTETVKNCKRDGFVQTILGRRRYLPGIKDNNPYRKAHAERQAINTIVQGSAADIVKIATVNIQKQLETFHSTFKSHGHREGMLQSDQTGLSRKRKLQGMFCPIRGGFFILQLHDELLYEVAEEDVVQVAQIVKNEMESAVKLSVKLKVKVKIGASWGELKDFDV
Effect on: enzyme activity
Action: inhibitor
Tested at: 77 µM
Reference: untreated
Quantity: remaining activity
CCOC(=O)CC(=O)N1CCSC1COc1ccccc1OC (stereo not shown): 99.7%
O=C(NNc1ccccc1)c1ccncc1: 81.8%
O=C(Nc1nc2cccc(-c3ccc(CN4CCS(=O)(=O)CC4)cc3)n2n1)C1CC1: 89.1%
CCCc1cc(=O)[nH]c(=S)[nH]1: 109% and 98.8%
OC[C@H]1O[C@@H](OCCc2ccc(O)cc2)[C@H](O)[C@@H](O)[C@@H]1O: 101%
O=C(/C=C/c1ccccc1)NC(NC(=S)Nc1cccc2cccnc12)C(Cl)(Cl)Cl (stereo not shown): 104%
COc1ccc2[nH]c([S+]([O-])Cc3ncc(C)c(OC)c3C)nc2c1 (stereo not shown): 107%
CC(=O)[C@H]1CC[C@H]2[C@@H]3CC=C4C[C@@H](O)CC[C@]4(C)[C@H]3CC[C@]12C: 93.3% and 98.7%

Some of these lines once more (sample 3):
Cn1c2ccccc2c2c3c(c4c5ccccc5n(CCC#N)c4c21)CNC3=O: 5.9%
COc1cc2ncnc(Nc3ccc(Oc4ccccc4)cc3)c2cc1OC: 75.7%
Cc1nc(-c2ccccc2)c(-c2ccncc2)o1: 84.9%
CN(C)c1ccc(C=C2C(=O)Nc3ccccc32)cc1: 94.5%
Cc1ccc(Nc2nccc(N(C)c3ccc4c(C)n(C)nc4c3)n2)cc1S(N)(=O)=O: 81.3%
Cn1sc(=O)n(Cc2ccccc2)c1=O: 101%
Nc1ncnc2n[nH]c(Nc3ccc(F)cc3)c12: 100%
NCCNc1ncc(C(N)=O)c(Nc2cccc(C(F)(F)F)c2)n1: 37.5%
